Measurements collected from several papers.
Numbered parts are unrelated; each lists some results of a single study. Substitutions count along the parent as printed.

Set 1
Target: Sal-like protein 4, full length isoform B (SALL4, Homo sapiens, UniProt Q9UJQ4-2, residues 1-616)
Technique: universal PBM
Form: double-stranded DNA, one strand shown
Medium: in vitro
Concentration: not given
Notes: 8-mer, flanks averaged, mean of replicates
Direction: higher = stronger binding
Oligonucleotide	E-score
AGCGTTAA	0.0767
ATGGGGAC	-0.226
AATGCGCA	0.135
CATTGCAC	-0.0237
AACGCTCT	-0.163

Set 2
Target: Histone acetyltransferase KAT6A, winged helix 1, GST fusion (KAT6A, Homo sapiens, UniProt Q92794, residues 1-85)
Technique: protein binding microarray
Form: double-stranded DNA, one strand shown
Medium: in vitro
Concentration: not given
Notes: 8-mer, flanks averaged, mean of 2 arrays, mostly near background
Reference: not given
Direction: higher = stronger binding
Construct (chain): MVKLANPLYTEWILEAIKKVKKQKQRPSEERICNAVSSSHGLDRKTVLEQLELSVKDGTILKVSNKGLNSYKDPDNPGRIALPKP
Oligonucleotide	E-score
GTAGCAGA	-0.215
CAAGCACA	-0.2
AATGGGGG	-0.134
GTATCCGA	0.14
CCGCACGA	0.187

Set 3
Target: CCNB1, cyclin fold, Cln2 fusion (human)
Technique: yeast growth competition, sequencing
Medium: yeast
Notes: strong parent motif
Reference: not given
Direction: higher = stronger binding
Starting sequence: MASTL docking peptide (human); PMIAKNLMCELDE; partner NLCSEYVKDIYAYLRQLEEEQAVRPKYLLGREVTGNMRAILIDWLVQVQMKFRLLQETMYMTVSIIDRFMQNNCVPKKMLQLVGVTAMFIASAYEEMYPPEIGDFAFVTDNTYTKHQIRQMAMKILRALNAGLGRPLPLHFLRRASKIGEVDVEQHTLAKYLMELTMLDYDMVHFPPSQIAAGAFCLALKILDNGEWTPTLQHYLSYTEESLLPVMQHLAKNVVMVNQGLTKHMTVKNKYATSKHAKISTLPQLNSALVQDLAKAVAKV
Change	normalised enrichment score
N6D	1.32
E10C	0.822
C9P	3.04
I3M	0.148
C9S	2.08
M8T	0.278

Mixed results
Substance	target	assay	system	conditions	scale	endpoint	result
PhoQ, residues 284 288 289 292 302 303 QWQEDG	PhoP, residues 12 14 15 18 19 NNFVT (Escherichia coli, UniProt P23836)	Sort-seq, refers to: YFP reporter	E. coli	PhoQ-PhoP variant library, together with: 10 µM Mg2+	reference: high Mg2+ state, higher = stronger signaling	fold induction	2.62

For quick reference, copied from above (set 2):
Oligonucleotide	E-score
GTAGCAGA	-0.215
